Measurements gathered from unrelated publications.
Parts stem from different laboratories: compare values within a part only.

Sample 1
Target: RNA binding protein fox-1 homolog 2, RRM domain, GST-SBP tag (RBFOX2, Homo sapiens, UniProt O43251-10, residues 100-194)
Method: RNA Bind-n-Seq
Molecule type: RNA
Medium: in vitro
Tested at: 365 nM
Setting: natural RNA segment, single round, ends assumed
Baseline: no-protein control
Direction: higher = stronger binding
Shared flanks, not repeated: GGGAGUUCUACAGUCCGACGAUC … UGGAAUUCUCGGGUGCCAA
Target sequence (chain): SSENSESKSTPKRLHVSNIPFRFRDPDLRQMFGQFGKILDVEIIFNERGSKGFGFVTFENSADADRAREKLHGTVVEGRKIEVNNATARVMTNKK
For `UCGCCACUGCCAAAGACUCCCAGGAAGCCACUAGCAAAUGGAACUCUGUAACCCCAUCAUGACAAGAGUGGCCACUCUCCGCCUGCACAGGGAUGAAAUAGAAAGCCUUA`, “RBNS enrichment (R)” read 0.36.
`CAAAAUCCCUCAAGAUAACCCUUUGCUAGGAAGUGGUGAAUCUAAAAGCUGAAGCACGUUUCAUAUGAAGCCAGUUCAGUGGCCUUGUUUAUUUCAAGACAAUGCCUUAU`: “RBNS enrichment (R)” 0.367.
For `CUUGAUCUUAUUUAAGGUCUCCAAAUAGCCCCCACCACACUUAGAACGUGUGUUUUCUUAGUGUUAGAAGCCAGGCCCUGAGUCCCCAGCACUCACCUGAACUGUGGCUG`, “RBNS enrichment (R)” read 0.332.
Under “RBNS enrichment (R)”, `AUCCAAGACUGAAUGAAAGCGCUUUUCUUAUGCAUACAAUGUGAGCAAGAACAAGAACUGUUUAAGGCACCUCUGUUCCCAGCCACUGAAGAGAGACGUCAGAAGAUGUU` is recorded as 1.03.
`UGGAAUUCAGUAAGUGCAUAUCCUAACUUGCCCAUAUUCUAAAUCAUCUGGUUGGUUUUCAGCCUAGAAUUUGAUACGCUUUUUAGAAAUAUGCCCAGAAUAGAAAAGCU`: “RBNS enrichment (R)” 0.5.
`ACAAAGAAGGCAGAGCCAGGAUAUAACUAGAAAAAGGAUGUCUUUUUUUUUUUUUUUACUCCCCCUCUAAACACUGCUGCUGCCUUAAUUUUAGAAAGCAGCUUACUAGU` — result for “RBNS enrichment (R)”: 0.393.
`UGGGACCUACUUUGUUUUUUGUUAUUUAUGACCUUGUUUAAAGAAAAUAAAUAUCUCCCAACCUUUAUUGGUCUGGUCUUUCUCUGUGGAAUUGUCCUUAUUUCUGCUGA`: “RBNS enrichment (R)” 0.431.
Under “RBNS enrichment (R)”, `CUCGCCCCCCCCCAAGUUGCCAGUGUUUCUGAAUGUCCUCGUGUCUGUGGUUGCGCUCCUUUCCCCAGGAAAAAGAAAAGAAAAAGAAAUUCGCAUGUUUAAUGUGACUU` is recorded as 9.16.

Sample 2
Target: Replicase polyprotein 1ab, main protease (rep, Severe acute respiratory syndrome coronavirus 2, UniProt P0DTD1)
Read-out: enzyme activity
Action: inhibitor
Tested at: 20 µM
Setting: primary screen
`Nc1ncc2c(n1)CC(c1ccco1)CC2=O` (stereo not drawn) has an inhibition of 47.5%.
`Nc1nc2nc[nH]c2c(=S)[nH]1` gave an inhibition of 81.4%.
For `Cc1ccnc2c1CCCC2C(N)=S` (stereo not drawn), the inhibition was 41.5%.
With `COc1cccc(C(=O)CCN[C@@H](C)[C@H](O)c2ccccc2)c1` the inhibition was 90.8%.
`NS(=O)(=O)c1ccc2c(c1)C1C=CCC1C(c1ccc(Br)cc1)N2` (stereo not drawn) has an inhibition of 27.1%.

Sample 3
Cell line: HEK-293T
Read-out: pseudovirus infection
Method: FDA-approved drug library screen
Organism: VSV pseudotyped with SARS-CoV-2 spike
Tested at: 10 µM
Time: 16 h
Baseline: vehicle-treated
`Cn1nnc2c(C(N)=O)ncn2c1=O` has a GFP-positive cells of 89.3%.
The GFP-positive cells of `CC(=O)OCC(COC(C)=O)OC(C)=O` is reported as 95.5%.
The GFP-positive cells of `COc1cnc(NS(=O)(=O)c2ccc(N)cc2)nc1` is reported as 102%.

Sample 4
Target: Phosphate system positive regulatory protein PHO4, full length, GST-tagged (PHO4, Saccharomyces cerevisiae, UniProt P07270, residues 1-312)
Method: competition protein-binding microarray
Molecule type: double-stranded DNA, one strand shown
Medium: in vitro
Tested at: 2 µM
Setting: whole 60-bp probe, lowest competitor level
Added: Cbf1 competitor, 0.05 µM
Direction: higher = stronger binding
Shared flanks, not repeated: … GTCTTGATTCGCTTGACGCTGCTG
Target sequence (chain): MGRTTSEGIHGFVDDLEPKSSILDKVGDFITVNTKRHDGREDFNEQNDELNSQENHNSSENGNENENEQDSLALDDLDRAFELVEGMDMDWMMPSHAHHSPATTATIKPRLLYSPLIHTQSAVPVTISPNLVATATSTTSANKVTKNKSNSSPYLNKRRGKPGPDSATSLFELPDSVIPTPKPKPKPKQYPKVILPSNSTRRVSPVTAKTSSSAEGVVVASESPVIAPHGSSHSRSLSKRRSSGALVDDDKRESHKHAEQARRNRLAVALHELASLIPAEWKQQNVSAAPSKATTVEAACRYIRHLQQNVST
For `AGTAATAGATCTCGGCACGTGGCCGCATTGACTCCG`, the fluorescence intensity was 18300 a.u.
The fluorescence intensity of `AAATTACTAAGTTGATTGGTGGGTGACGCCGTATGA` is reported as 3770 a.u.
`AACCGTAGGATGTCCCACGTTCGACTTGAACTCGTT` gave a fluorescence intensity of 10700 a.u.
For `TTAACGGTTCTCTAGCTCGTGCTTTTAAAGTTAAGT`, the fluorescence intensity was 11000 a.u.
For `GATAATTCTGTCCTTCACGTGGTCGAAACCGGTTAT`, the fluorescence intensity was 16300 a.u.
With `CGGGGTTAAGTTTGACATGTGGGTGGCTTGCAGCAG` the fluorescence intensity was 10600 a.u.
`GTCTTGTCTCATTGCTTTGTGGGTGTCCCCACTTCA` gave a fluorescence intensity of 4330 a.u.
`ACATGTACCAAGTAACCTTTTCCAATAAAATTTCAA` gave a fluorescence intensity of 5190 a.u.

Sample 5
Target: Replicase polyprotein 1ab, nsp13 helicase (rep, Severe acute respiratory syndrome coronavirus 2, UniProt P0DTD1)
Action: inhibitor
Tested at: 20 µM
For `c1cnc2cc3c(cc2n1)[C@@H]1CNC[C@H]3C1`, the inhibition was 3.99%.
`CC(=O)N1CCN(c2ccc(OC[C@@H]3CO[C@@](Cn4ccnc4)(c4ccc(Cl)cc4Cl)O3)cc2)CC1` (racemic) gave an inhibition of 3.19%.
The inhibition of `Nc1ccc(S(=O)(=O)Nc2ccc(Cl)nn2)cc1` is reported as 2.05%.
For `CCc1c(C(=O)NCCc2ccc(N3CCCCC3)cc2)[nH]c2ccc(Cl)cc12`, the inhibition was 0.07%.
With `COc1ccc(CN2C(=O)C(=O)c3cc(OC(F)(F)F)ccc32)cc1` the inhibition was 39.5%.
`COC[C@@H](NC(C)=O)C(=O)NCc1ccccc1` has an inhibition of -4.17%.
`O=C(CCCCCN1C(=O)c2cccc3cccc(c23)C1=O)NO` gave an inhibition of 5.87%.
The inhibition of `CCOC(=O)Nc1cc(-c2ccc(C)c(NS(C)(=O)=O)c2)nn2c(C)nnc12` is reported as 7.61%.
The inhibition of `COC(=O)C[C@](O)(CCC(C)(C)O)C(=O)O[C@@H]1C(OC)=C[C@]23CCCN2CCc2cc4c(cc2[C@H]13)OCO4` is reported as -2.26%.
`Cn1nnc(-c2ccc(-c3ccc(N4C[C@H](CO)OC4=O)cc3F)cn2)n1` gave an inhibition of -4.1%.
With `CC(C)C[C@@H](N)C(=O)N[C@H]1C(=O)N[C@@H](CC(N)=O)C(=O)N[C@H]2C(=O)N[C@H]3C(=O)N[C@H](C(=O)N[C@H](C(=O)O)c4cc(O)cc(O)c4-c4cc3ccc4O)[C@H](O)c3ccc(c(Cl)c3)Oc3cc2cc(c3O[C@@H]2O[C@H](CO)[C@@H](O)[C@H](O)[C@H]2O[C@H]2C[C@](C)(N)[C@H](O)[C@H](C)O2)Oc2ccc(cc2Cl)[C@H]1O` the inhibition was 9.86%.
`CCCCCCCCCCCCCCOC(=O)c1cccnc1` gave an inhibition of -0.43%.
The inhibition of `NC(=O)c1cc[n+](CC2=C(C(=O)[O-])N3C(=O)[C@@H](NC(=O)Cc4cccs4)[C@H]3SC2)cc1` is reported as 11.2%.
With `COc1ccc2c(c1OC)C(=O)O[C@@H]2[C@H]1c2c(cc3c(c2OC)OCO3)CCN1C` the inhibition was 5.8%.
The inhibition of `Nc1cccc2c(=O)[nH][nH]c(=O)c12` is reported as -5.33%.
`Cc1nc(Nc2n[nH]c3c2CN(C(=O)N[C@H](CN(C)C)c2ccccc2)C3(C)C)c2sccc2n1` has an inhibition of -2.14%.
The inhibition of `NCCCNCCSP(=O)(O)O` is reported as 3.77%.
The inhibition of `O=C(c1ccccc1)c1ccc2n1CCC2C(=O)O` (stereo not drawn) is reported as 5.12%.
For `O=C1/C(=C/c2ccccc2)C(NC2CCCCC2)c2ccccc21` (stereo not drawn), the inhibition was 17.7%.
The inhibition of `CC(=O)[C@H]1CC[C@H]2[C@@H]3CCC4=CC(=O)CC[C@]4(C)[C@H]3CC[C@]12C` is reported as -1.42%.
The inhibition of `CN(C)C(=O)c1cc2cnc(Nc3ccc(N4CCNCC4)cn3)nc2n1C1CCCC1` is reported as 12.2%.
With `CC[C@H]1OC(=O)[C@@](C)(F)C(=O)[C@H](C)[C@@H](O[C@@H]2O[C@H](C)C[C@H](N(C)C)[C@H]2O)[C@](C)(OC)C[C@@H](C)C(=O)[C@H](C)[C@H]2N(CCCCn3cc(-c4cccc(N)c4)nn3)C(=O)O[C@]12C` the inhibition was 11%.
The inhibition of `CN1CCCCC1CCN1c2ccccc2Sc2ccc([S+](C)[O-])cc21` (stereo not drawn) is reported as 4.63%.
For `Cc1cc(NC(=O)NCCN2CCC(O)(Cc3ccccc3)CC2)c2ccccc2n1`, the inhibition was 0.72%.
The inhibition of `CN1[C@@H]2CC[C@H]1CC(OC(=O)N1Cc3ccccc3NC1=O)C2` (stereo partly drawn) is reported as 5.51%.

Sample 6
Target: Interferon regulatory factor 7, full length, phosphomimetic (IRF7, Homo sapiens, UniProt Q92985, residues 1-503, S101K/S471D/S472D/S475D/S476D/S477D/S483D/S484D/S487D)
Chain of UniProt Q92985 (whole entry, unmodified, looked up): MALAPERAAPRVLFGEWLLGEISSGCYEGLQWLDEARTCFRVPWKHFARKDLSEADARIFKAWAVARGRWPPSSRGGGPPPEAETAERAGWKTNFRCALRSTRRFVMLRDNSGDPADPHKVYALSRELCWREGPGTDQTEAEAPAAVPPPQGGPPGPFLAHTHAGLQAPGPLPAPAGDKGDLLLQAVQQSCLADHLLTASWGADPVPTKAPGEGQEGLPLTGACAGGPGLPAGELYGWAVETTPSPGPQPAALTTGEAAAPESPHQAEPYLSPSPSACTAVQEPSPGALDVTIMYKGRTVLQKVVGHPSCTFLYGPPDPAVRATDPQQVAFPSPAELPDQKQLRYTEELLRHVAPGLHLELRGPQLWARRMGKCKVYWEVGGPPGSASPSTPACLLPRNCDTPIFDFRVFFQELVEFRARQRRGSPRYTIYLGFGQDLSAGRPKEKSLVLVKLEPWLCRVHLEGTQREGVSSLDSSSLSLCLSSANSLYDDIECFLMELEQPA
Method: protein-binding microarray
Molecule type: double-stranded DNA, one strand shown
Medium: in vitro
Tested at: 250 nM
Setting: 60-bp whole probe
Added: salmon DNA 0.4 mg/ml
Baseline: random background probes
Direction: higher = stronger binding
Shared flanks, not repeated: GCCTAGCAC … GTGCTAGGTCTTGATTCGCTTGACGCTGCTG
For `GATTTTTTAGCTTGCAAAAA`, the log fluorescence was 0.228 z-score.
The log fluorescence of `TTAGGTATCGGTCTCGGTCA` is reported as 1.13 z-score.
The log fluorescence of `TTAGGTTTCGGACTAGGTTA` is reported as 4.52 z-score.
`GACGGTCACCTTATCCTGAC` has a log fluorescence of -0.0847 z-score.
For `GACGTTTTCAGTTTCGAGAC`, the log fluorescence was 5.41 z-score.
The log fluorescence of `GACGATATCAGTATCTAGAC` is reported as -0.218 z-score.
With `CGACATTTTTATTTGCCTTA` the log fluorescence was 0.621 z-score.
With `GCATTTTTCTAATTTACTTT` the log fluorescence was 1.77 z-score.

Repeated from above (sample 6):
For `GATTTTTTAGCTTGCAAAAA`, the log fluorescence was 0.228 z-score.
`GACGGTCACCTTATCCTGAC` has a log fluorescence of -0.0847 z-score.
For `GACGTTTTCAGTTTCGAGAC`, the log fluorescence was 5.41 z-score.
The log fluorescence of `TTAGGTTTCGGACTAGGTTA` is reported as 4.52 z-score.
With `GCATTTTTCTAATTTACTTT` the log fluorescence was 1.77 z-score.
With `CGACATTTTTATTTGCCTTA` the log fluorescence was 0.621 z-score.
The log fluorescence of `GACGATATCAGTATCTAGAC` is reported as -0.218 z-score.
